# Experimental data gathered from unrelated publications.
# Protocols differ between the studies behind these lines. Values joined by “and” are separate records of one study, mostly repeats; a detail may differ.
# Target: Calcium/calmodulin-dependent protein kinase kinase 2 (CAMKK2, Homo sapiens, UniProt Q96RR4)
SMILES,test,system,setting,scale,endpoint,result
Cc1ccc(C)c(-c2ccc3nc(NC(=O)C4CCCCC4)nn3c2)c1,"enzyme activity, Dundee kinase panel",,10 µM,,remaining activity,45%
C=CC(=O)N1CCc2ccc(-n3c(=O)ccc4cnc5ccc(-c6cnn(C)c6)cc5c43)cc21,KINOMEscan,,1 µM,baseline: DMSO control,remaining binding,95%
COc1c(Cl)cccc1Nc1c(-c2ccncc2C#C[C@@]2(C)CCCN2C(=O)/C=C/CN(C)C)[nH]c2c1C(=O)NCC2,"binding, competition with immobilised ligand",,3 µM,,remaining binding,97%
COc1cc(Nc2nccc(-c3cnn4nc(OC)ccc34)n2)cc(C(F)(F)F)c1,"binding, competition with immobilised ligand",,1 µM,,remaining binding,90%
Cc1ccc(-c2c(/C=C(\C#N)C(=O)NC(C)C)n(CCCO)c3ncnc(N)c23)cc1,"cell-free assay, competition with immobilised ligand",,1 µM,,remaining binding,100%
COCC12C(=O)NC3C4(C(OC)CC1O)C1CC5(O)C(OC)C(O)C(OC(C)=O)(C1C5OC(=O)c1ccccc1)C3(O)C(OC)C24 (centres unmarked),"kinase activity, inhibitor, ProQinase kinase profiling",,25 µM,baseline: control,remaining activity,101% and 96%
CN1CCN(Cc2ccc(-c3ccc(CO[C@H]4CCC[C@@H]4NC(=O)c4cc(-c5cnn(C)c5)cnc4N)cc3)cc2)CC1,"enzyme activity, inhibitor",,0.1 µM,,inhibition,6%
CN1CC[C@@H](COc2cnc(C#N)cc2-c2ccn3nc(NC(=O)C4CC4)cc3c2)C1,"enzyme activity, inhibitor",,1 µM,,inhibition,-3%
NC(=O)[C@@H](O)C[C@H]1CCc2sc3ncnc(O[C@H]4CC[C@H](N5CCOCC5)CC4)c3c21,"enzyme activity, inhibitor",,10 µM,,inhibition,27%
CCn1cc(C(=O)O)c(=O)c2c(N)c(F)c(NC3CCCCC3)cc21,kinase activity,,"0.1 µM, added: ATP at Km",,inhibition,-4.3%
CC(C)=CC1OC(C)(C)C2C=C3C(=O)C(Cl)=CC(O)C3C3C(O)C4OC4C(=O)C132 (centres unmarked),"cell-free assay, competition with immobilised ligand",,10 µM,,remaining binding,82%
Cc1cccc(-c2ccc3nc(NC(=O)C4CCCO4)nn3c2)c1 (centres unmarked),"enzyme activity, Dundee kinase panel",,10 µM,,remaining activity,85%
CS(=O)(=O)Nc1cccc(-c2csc3cnc(Nc4ccc(N5CCN(CCCCCOc6cccc7c6C(=O)N(C6CCC(=O)NC6=O)C7=O)CC5)cc4)nc23)c1 (centres unmarked),"probe labelling, inhibitor, KiNativ chemoproteomics",MOLT-4,1 µM,,inhibition,-8.83%
CCN1CCN(Cc2ccc(C(=O)Nc3ccc(C)c(NCc4cnc5[nH]ccc5c4OC)c3)cc2C(F)(F)F)CC1,"binding, competition with immobilised ligand",,1 µM,,remaining binding,96%

# Repeated from above:
SMILES,test,system,setting,scale,endpoint,result
CS(=O)(=O)Nc1cccc(-c2csc3cnc(Nc4ccc(N5CCN(CCCCCOc6cccc7c6C(=O)N(C6CCC(=O)NC6=O)C7=O)CC5)cc4)nc23)c1 (centres unmarked),"probe labelling, inhibitor, KiNativ chemoproteomics",MOLT-4,1 µM,,inhibition,-8.83%
COCC12C(=O)NC3C4(C(OC)CC1O)C1CC5(O)C(OC)C(O)C(OC(C)=O)(C1C5OC(=O)c1ccccc1)C3(O)C(OC)C24 (centres unmarked),"kinase activity, inhibitor, ProQinase kinase profiling",,25 µM,baseline: control,remaining activity,101% and 96%
